Assay results of several laboratories.
Every numbered part comes from another study and shows a few of its results, in no order.

Set 1
Target: Histone acetyltransferase KAT6A, winged helix 2, GST fusion (KAT6A, Homo sapiens, UniProt Q92794, residues 85-181)
Technique: protein binding microarray
Molecule type: double-stranded DNA, one strand shown
Sample: in vitro
Tested at: not given
Notes: 8-mer, flanks averaged, mean of 2 arrays, mostly near background
Baseline: not given
Direction: higher = stronger binding
Construct (chain): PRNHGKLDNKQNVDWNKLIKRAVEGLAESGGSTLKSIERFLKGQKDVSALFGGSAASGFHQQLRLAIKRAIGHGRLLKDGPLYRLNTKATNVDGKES
Sequence	E-score
CGGACAAA	-0.000605
CCCCATAA	-0.022
CCTTCCTA	-0.0566
TGACCTAA	0.129
CTACCAAA	-0.0432
ATGTCACG	-0.128
AAAGTCAA	-0.0623
AACTTCAA	-0.101
CCTACGCG	-0.0167
CTGAGAGC	0.0249
ACCAAGGA	-0.0456
AATGTGAT	-0.0874
CATCGTGA	-0.021
GTGAAGTA	-0.144
CGCGAAGC	0.237
GTATCCAA	0.0281
CATCAAAC	-0.0662
ATGGATTG	-0.00273
ATGTCTGA	-0.0299
GCGAGCGA	0.227
CAGAAACG	0.182
ATTTCTGA	-0.0251
CTTGCCAA	-0.00128
CTCAAAAG	0.00298
ACCAGTGG	-0.108

Set 2
Target: RNA binding protein fox-1 homolog 2, RRM domain, GST-SBP tag (RBFOX2, Homo sapiens, UniProt O43251-10, residues 100-194)
Technique: RNA Bind-n-Seq
Molecule type: RNA
Sample: in vitro
Tested at: 365 nM
Notes: natural RNA segment, single round, ends assumed
Baseline: no-protein control
Direction: higher = stronger binding
Construct (chain): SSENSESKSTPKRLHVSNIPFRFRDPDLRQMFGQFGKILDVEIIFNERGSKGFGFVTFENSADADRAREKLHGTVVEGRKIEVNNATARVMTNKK
Sequence	RBNS enrichment (R)
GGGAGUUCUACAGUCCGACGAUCAGCCCAGUCUUCCUUAGUCUCUGGACCUAGAAGGGACCAUUGGAGAAGCAGGCUCUGCUUCUCUGUUGUUCCUGGUGGCUGGGCCUUAGCAGGGGUCUUUGCUCUUGAAGUGGAAUUCUCGGGUGCCAA	0.246
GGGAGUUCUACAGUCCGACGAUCUGGUGUUUCCAGUUUGAUGUUGCUGGGUGGUUGAGUGAGUGAAUUUUCAUGUGGCUGGGUGGGUUUUUGCCUUUUUCUCUUGCCCUGUUCCUGGUGCCUUCUGAUGGGGCUGGAAUUCUCGGGUGCCAA	0.835
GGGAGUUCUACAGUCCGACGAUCGGAUCAGCCAAGCUUCGUUCCAUCUUUUCCUAAAGGUCAGAGCUGCAGCCUAGGGGGCACUGCCCUACAGAAAAGGUCUGCCUGAGAGGCCUGAGGAGCCCAGAGCACUUUGGAAUUCUCGGGUGCCAA	0.26
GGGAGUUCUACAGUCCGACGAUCUGGCUUCAGGCCGAGCGUGGAGUAGCUCUGCAGUCUGCAUGAAUCGGCCUUUGAUCUGGCCAAGUCUUAGAGAAUGUUGUAGAUGGGGGUUAAGAGAACCAUUUAAAGUAUGGAAUUCUCGGGUGCCAA	8.62
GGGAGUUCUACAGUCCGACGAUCUAGUUUAUUUGGCUCAGUCCACAGCUGCGUUGGAGUGGUGACUUUGGUAGCCCUUGAGCUCUAAUUAAGAGAGAUCCAAACCACUCAGUACCCACUGGGCAGUGGGAAGGUGGAAUUCUCGGGUGCCAA	0.257
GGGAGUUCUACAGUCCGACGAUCGAUUUUUAUUUUAAUAUUAUUUGUGUCUGUGUAUAUAUUUGUAUAUAAAUUUUAUGAACCCCAGGCAUACUGCUUGUUUUUUUAAAAAAAAAUAAAACUCAAAAUUGAUCUGGAAUUCUCGGGUGCCAA	4.08
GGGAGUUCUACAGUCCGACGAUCUUUCUUUUUUAAAAGAAAAAACUUGAAAGAACACUUCUAAGCCUAAGUGUGUGAUACAGUUUGUUACUUUUAAGUACAUUUUAAUAAUUUCAGACAUCUGCAUUUUUAUUUGGAAUUCUCGGGUGCCAA	1.09
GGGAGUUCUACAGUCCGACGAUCAGGUGAUGCUGAGGUCCCUUGUGGAAGCCUCUCUUGGGAAUCUCAACUGCAGAGGAGCUGCCCUCUGUCAGCAGCUCUCCAGCAUGGUCCUCUGACACUCCUCAGAUGAAUGGAAUUCUCGGGUGCCAA	0.532
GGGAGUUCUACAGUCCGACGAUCAUAGCUGAACUGUGUUUACUGGAAAAAUUCAGAGGCCUAAAGUUUAAAAUAAAAUUUACUUCCGACGUUUUAAUUACAAAUGUUUGCCACAUUAACUUCUCUGAUGCCUUUGGAAUUCUCGGGUGCCAA	0.473

Set 3
Target: Interferon regulatory factor 3, full length, phosphomimetic (IRF3, Homo sapiens, UniProt Q14653, residues 1-427, S386D/S396D/S398D/S402D/T404D/S405D)
Technique: protein-binding microarray
Molecule type: double-stranded DNA, one strand shown
Sample: in vitro
Tested at: 2540 nM top
Notes: 60-bp whole probe
Together with: salmon DNA 0.4 mg/ml
Baseline: random background probes
Direction: higher = stronger binding
Constant ends, left off below: GCCTAGCAC … GTCTTGATTCGCTTGACGCTGCTG
Residues (chain): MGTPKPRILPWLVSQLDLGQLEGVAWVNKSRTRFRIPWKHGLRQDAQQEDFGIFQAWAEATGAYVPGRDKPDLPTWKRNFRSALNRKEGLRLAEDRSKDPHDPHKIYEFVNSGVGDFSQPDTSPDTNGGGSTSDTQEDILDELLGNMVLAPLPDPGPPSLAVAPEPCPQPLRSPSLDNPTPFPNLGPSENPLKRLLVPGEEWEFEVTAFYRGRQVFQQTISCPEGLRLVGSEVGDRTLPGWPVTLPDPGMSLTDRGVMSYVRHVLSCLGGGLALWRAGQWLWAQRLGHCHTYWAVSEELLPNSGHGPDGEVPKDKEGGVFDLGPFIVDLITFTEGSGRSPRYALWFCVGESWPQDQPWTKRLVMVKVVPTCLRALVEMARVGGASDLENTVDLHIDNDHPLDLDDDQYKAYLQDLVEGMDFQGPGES
Sequence	fitted relative affinity [z-score]
TTAAGTTTCGGTCTCGGTTAGTGCTAG	9.37
TTAGGGCTCGGACTGGGTTAGTGCTAG	-1.02
GTAGGTATCGGTATCGGTTAGTGCTAG	5.08
TCATACATGCATATAGTACTGTGCTAG	0.291
TTAGGTATCGATTATCGGTTAGTGCTA	2.15
TCAAGTTTCACTTTCCAACTGTGCTAG	8.27
GACCGACTGCTTATCCTGACGTGCTAG	-0.0366
GTGTGTCTGATTATTTACATGTGCTAG	0.766
GACGCTCTCGGTCTCGGGACGTGCTAG	0.302
ACAGCTCACGCTTTGGAAAGGTGCTAG	-0.252
AGACCTTGCTTTATGTGTAGGTGCTAG	-0.34
TTAGAACTGAGACAGGATTAGTGCTAG	-0.294
GTAGATTTCAGTATCGATTAGTGCTAG	2.62
GACGATCTCAGTATCTAGACGTGCTAG	0.661
TTAGGTATGGACTTTCGGTTAGTGCTA	1.03
TTAGAACTGGGGTCTGGATTAGTGCTA	-0.792
TTACGACTGGGTTTCGGTTAGTGCTAG	3.29
TCATTTTTAGAAATTTTTACTGTGCTA	1.42
TACGAACTGAGTTTCGAGACGTGCTAG	1.32
GACGATATCAGTTTGGAGACGTGCTAG	0.735
TCATGCTTTCTTTTATGACTGTGCTAG	0.947
TTGGGTTTCCTTTCCCTTTAGTGCTAG	9.51
TTAGGTCTCCTTCTCCTATAGTGCTAG	4.77
GACGGTATCCTTCTCATGACGTGCTAG	6.98
TTAGATCTCAGTCTCCATTAGTGCTAG	1.09

Set 4
Target: Ras GTPase-activating protein-binding protein 1, RRM domain (G3BP1, Homo sapiens, UniProt Q13283)
Sequence of UniProt Q13283 (whole entry, looked up): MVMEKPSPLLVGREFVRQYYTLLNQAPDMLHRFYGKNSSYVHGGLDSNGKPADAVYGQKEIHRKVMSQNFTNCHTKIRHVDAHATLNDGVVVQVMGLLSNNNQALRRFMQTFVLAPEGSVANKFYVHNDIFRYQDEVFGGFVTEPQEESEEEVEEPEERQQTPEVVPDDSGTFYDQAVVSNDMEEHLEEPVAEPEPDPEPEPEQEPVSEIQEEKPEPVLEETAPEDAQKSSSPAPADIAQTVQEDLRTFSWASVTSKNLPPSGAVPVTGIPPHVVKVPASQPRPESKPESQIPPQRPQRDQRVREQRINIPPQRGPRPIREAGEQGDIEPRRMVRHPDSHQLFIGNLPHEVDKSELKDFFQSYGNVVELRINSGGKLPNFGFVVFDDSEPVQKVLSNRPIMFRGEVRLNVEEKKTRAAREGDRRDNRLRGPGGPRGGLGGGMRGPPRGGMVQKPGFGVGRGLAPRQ
Technique: RNA Bind-n-Seq
Molecule type: RNA
Sample: in vitro
Tested at: 1 µM
Notes: whole 134-nt RNA, ends assumed
Together with: 150 mM KCl
Baseline: input library
Direction: higher = stronger binding
Sequence	log2 enrichment
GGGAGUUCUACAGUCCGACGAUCUUUUACUUCUCCGCCAGGUGCUGUGCUCCAUCAUCGCCGGUACCUUGCACUAUCUCUACCUGGCCACCUUGACCUGGAUGCUGCUGGAGGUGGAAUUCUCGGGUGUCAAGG	0.0162
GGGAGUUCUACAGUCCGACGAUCUGGUAUUCAUGGGUAGUUUGAAAUAUCCAGAUGAGAAUGGAUUUGAUGCCUUCCUGAAGAAGCAUGGGGGUAGUGAUAAUGCCUCAACUGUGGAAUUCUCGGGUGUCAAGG	-0.232
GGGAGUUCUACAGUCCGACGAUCCACAGACAACACGCACCCACACAGACACAGAGGGAAGGGGUUGGGAUGGGGACAGGGUGCACAGCAGGGCGGGGUAGGAACCCAGCCCCUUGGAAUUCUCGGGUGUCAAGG	-0.386
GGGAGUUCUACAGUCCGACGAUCUCCUCAAGUCCUGUGCUACACAUCGUAUGUACCGAAUCGGUGGAAAGGUGGAAAGUAUUAUGUUACGCCGUUCGGAUCUGCACUUCCAGCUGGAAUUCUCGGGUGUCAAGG	-0.112
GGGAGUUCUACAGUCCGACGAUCCAAGUCCUGUGCUACACAUCGUAUGUACCGAAUCGGAAAAAGGAAAGGUUUUUGGAAAGUAUUAUGUUACGCCGUUCGGAUCUGCACUUCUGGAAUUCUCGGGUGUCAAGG	-0.266
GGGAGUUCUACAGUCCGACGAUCGCAGGAAGUAAAAACAAAUGGAAAUGCUUCGGAUAGUGGCAGGGGUGGGGGUUGCUAAGGAAAGGGUGGGAAAAGAGUGGGUAAAGAGUUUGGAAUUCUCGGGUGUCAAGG	1.88
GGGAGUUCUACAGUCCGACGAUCGCAGGAAGUGAAAACAAAUGGAAAUGCUUCGGAUAGUGGCAGGGGUGGGGGUUGCUAAGGAAAGGGUGGGAUGGGAGUGGGUAAAGAGUUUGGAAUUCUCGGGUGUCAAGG	1.68
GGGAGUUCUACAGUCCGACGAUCAGUCCUGUGCUACACAUCGUAUGUACCGAAUCGGGGAAAGGGGAGGGGUUUUUGGGGAAAGUAUUAUGUUACGCCGUUCGGAUCUGCACUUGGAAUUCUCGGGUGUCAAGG	0.908
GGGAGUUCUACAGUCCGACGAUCUCAAGUCCUGUGCUACACAUCGUAUGUACCGAAUCGGGUGGGUGGGAAAAAGGGAAAGUAUUAUGUUACGCCGUUCGGAUCUGCACUUCCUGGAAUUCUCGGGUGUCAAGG	0.529
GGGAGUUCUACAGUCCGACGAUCCUCAAGUCCUGUGCUACACAUCGUAUGUACCGAAUCGGCCGGCCGGGCCGGGGAAAGUAUUAUGUUACGCCGUUCGGAUCUGCACUUCCAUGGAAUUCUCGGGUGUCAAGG	-0.326

A few entries again (set 4):
Sequence	log2 enrichment
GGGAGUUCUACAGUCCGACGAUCCACAGACAACACGCACCCACACAGACACAGAGGGAAGGGGUUGGGAUGGGGACAGGGUGCACAGCAGGGCGGGGUAGGAACCCAGCCCCUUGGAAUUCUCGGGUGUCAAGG	-0.386
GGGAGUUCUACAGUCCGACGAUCUCCUCAAGUCCUGUGCUACACAUCGUAUGUACCGAAUCGGUGGAAAGGUGGAAAGUAUUAUGUUACGCCGUUCGGAUCUGCACUUCCAGCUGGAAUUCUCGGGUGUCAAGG	-0.112
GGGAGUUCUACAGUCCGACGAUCCAAGUCCUGUGCUACACAUCGUAUGUACCGAAUCGGAAAAAGGAAAGGUUUUUGGAAAGUAUUAUGUUACGCCGUUCGGAUCUGCACUUCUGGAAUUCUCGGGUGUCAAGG	-0.266
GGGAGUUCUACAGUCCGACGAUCGCAGGAAGUAAAAACAAAUGGAAAUGCUUCGGAUAGUGGCAGGGGUGGGGGUUGCUAAGGAAAGGGUGGGAAAAGAGUGGGUAAAGAGUUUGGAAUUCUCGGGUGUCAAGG	1.88
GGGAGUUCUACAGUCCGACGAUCGCAGGAAGUGAAAACAAAUGGAAAUGCUUCGGAUAGUGGCAGGGGUGGGGGUUGCUAAGGAAAGGGUGGGAUGGGAGUGGGUAAAGAGUUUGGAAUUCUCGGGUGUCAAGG	1.68
